Measured values pooled from the literature.
Parts stem from different laboratories: compare values within a part only. Substitutions count along the parent as printed.

Sample 1
Target: CCND2, cyclin fold, Cln2 fusion (human)
Technique: yeast growth competition, sequencing
Matrix: yeast
Notes: weak parent motif
Baseline: not given
Reading: higher = stronger binding
Starting sequence: E2F8 docking peptide (human); FVPQRKLEVSTED; partner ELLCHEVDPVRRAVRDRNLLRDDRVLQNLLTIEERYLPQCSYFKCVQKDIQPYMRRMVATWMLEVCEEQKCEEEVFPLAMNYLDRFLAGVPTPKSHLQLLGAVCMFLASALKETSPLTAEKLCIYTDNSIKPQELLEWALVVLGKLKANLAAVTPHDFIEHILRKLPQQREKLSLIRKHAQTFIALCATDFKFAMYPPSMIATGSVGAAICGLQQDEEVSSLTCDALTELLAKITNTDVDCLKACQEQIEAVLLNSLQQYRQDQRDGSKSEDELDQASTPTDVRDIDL
`FVPQAKAEVSTED [R5A L7A]` — result for “normalised enrichment score”: 0.0931.
`FVPQRKLELSTED [V9L]` — result for “normalised enrichment score”: -0.356.
`FVPQRALEVSTED [K6A]` — result for “normalised enrichment score”: 0.0467.
For `FVPQRKAEVSTED [L7A]`, “normalised enrichment score” read 0.144.
`FVAQRKLEVSTED [P3A]` — result for “normalised enrichment score”: 0.132.
For `FVPARKLEVSTED [Q4A]`, “normalised enrichment score” read -0.309.
Under “normalised enrichment score”, `AVPQRKLEVSTED [F1A]` is recorded as 0.16.
`FVPQRKLEVSTEA [D13A]`: “normalised enrichment score” -0.315.
For `FVPQKKLEFSTED [R5K V9F]`, “normalised enrichment score” read -0.152.
For `FVPQAKLEVSTED [R5A]`, “normalised enrichment score” read -0.00403.
For `FVPQKKLELSTED [R5K V9L]`, “normalised enrichment score” read -0.125.

Sample 2
Target: Transcription factor SOX-2, HMG box (SOX2, Homo sapiens, UniProt P48431, residues 19-118)
Chain of UniProt P48431 (19-118, looked up): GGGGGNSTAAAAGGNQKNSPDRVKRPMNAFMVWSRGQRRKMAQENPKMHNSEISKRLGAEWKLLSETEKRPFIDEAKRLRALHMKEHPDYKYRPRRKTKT
Technique: protein-binding microarray
Form: double-stranded DNA, one strand shown
Matrix: in vitro
Concentration: not given
Notes: k-mer, scored over probes, only values ≥0.25
Reading: higher = stronger binding
With `GAATTGC` the E-score was 0.292.
With `CAAATTC` the E-score was 0.268.
With `ACAATTC` the E-score was 0.449.
`AATAGGA` has an E-score of 0.257.
For `AATGAAC`, the E-score was 0.254.
For `TCAATAA`, the E-score was 0.363.
For `ATTCAGA`, the E-score was 0.333.
`ATTGATG` gave an E-score of 0.347.
With `AATAGAG` the E-score was 0.305.
`AAATTCA` gave an E-score of 0.371.
With `AACACAA` the E-score was 0.306.
The E-score of `ATTGTCG` is reported as 0.407.
With `CATATAA` the E-score was 0.348.
`CAATTGC` gave an E-score of 0.325.
With `GAATTCA` the E-score was 0.411.
With `CTTTTTA` the E-score was 0.332.
For `ATTCACA`, the E-score was 0.395.

Sample 3
Target: Interferon regulatory factor 5, full length, phosphomimetic (IRF5, Homo sapiens, UniProt Q13568-2, residues 1-514, K96S/S451D/S453D/S456D/S462D)
Technique: protein-binding microarray
Form: double-stranded DNA, one strand shown
Matrix: in vitro
Concentration: 250 nM
Notes: 60-bp whole probe
Together with: salmon DNA 0.4 mg/ml
Baseline: random background probes
Reading: higher = stronger binding
Constant ends, left off below: GCCTAGCAC … GTCTTGATTCGCTTGACGCTGCTG
For `TTAGGTATCGGTATGGGTTAGTGCTAG`, the log fluorescence was 7.25 z-score.
For `TTAGGTTTTCTTCTCCTTTAGTGCTAG`, the log fluorescence was 0.946 z-score.
`TCATCTTCACATATAATACTGTGCTAG` has a log fluorescence of 0.858 z-score.
`GACGGTTTCGACTTTCGGTACGTGCTA` gave a log fluorescence of 10.2 z-score.
With `TTAGGTTTCCTTCTCCGTTAGTGCTAG` the log fluorescence was 1.1 z-score.
For `TTAGGTATCAGGTTTCGGTTAGTGCTA`, the log fluorescence was 8.25 z-score.
`TTAGATATCAGACTAGATTAGTGCTAG` has a log fluorescence of 0.392 z-score.
For `TTAGGTTTCGTTTTCGGTTAGTGCTAG`, the log fluorescence was 10.8 z-score.
`TTTAGATTTTTTTTCCTAATGTGCTAG` gave a log fluorescence of 0.871 z-score.
`TTAGTTTTCGGGTTTCGGTTAGTGCTA` has a log fluorescence of 9.61 z-score.
With `GACAGACTGGGGACTGGGGACGTGCTA` the log fluorescence was -0.27 z-score.
`GACGATATCGGGTATCGAGTCGTGCTA` has a log fluorescence of 2.82 z-score.
For `TCATGCATCTGATTTCTCACTGTGCTA`, the log fluorescence was 0.822 z-score.
With `GACGGTCTCGGTCTCCGGACGTGCTAG` the log fluorescence was 0.289 z-score.
`TCACATCTCTGTCCGTGACTGTGCTAG` gave a log fluorescence of 0.228 z-score.
`TTTGATATCGGGTATCGATTAGTGCTA` gave a log fluorescence of 6.93 z-score.
`GACGGTTTCGACTATCTGGACGTGCTA` has a log fluorescence of 6.63 z-score.
For `GCCGATTTCGGGTATCGAGACGTGCTA`, the log fluorescence was 5.69 z-score.
With `TTAGATTTCAGTTCCGACTAGTGCTAG` the log fluorescence was 2.2 z-score.
For `TTAGGTATCGGGCTCGGTTAGTGCTAG`, the log fluorescence was 1.69 z-score.
The log fluorescence of `TTAGATCTCAGACTGGATTGGTGCTAG` is reported as -0.251 z-score.

Sample 4
Target: Sal-like protein 4, full length isoform B (SALL4, Homo sapiens, UniProt Q9UJQ4-2, residues 1-616)
Technique: universal PBM
Form: double-stranded DNA, one strand shown
Matrix: in vitro
Concentration: not given
Notes: 8-mer, flanks averaged, mean of replicates
Reading: higher = stronger binding
`CGTTAGTA` gave an E-score of 0.118.
`TCGATACA` gave an E-score of 0.192.
The E-score of `CTCGAATA` is reported as 0.0142.
`GTAGTCCA` gave an E-score of -0.0513.
`CTAGACCA` has an E-score of 0.0279.
`GACGCTGA` has an E-score of -0.136.
`GATTCTGA` gave an E-score of -0.016.
The E-score of `ATCGAACC` is reported as -0.0656.
With `AAACGACA` the E-score was 0.00392.
The E-score of `CTCCATTA` is reported as 0.178.
`TACGTAGA` has an E-score of 0.162.
`CGATGTTA` has an E-score of 0.106.
`TGGAGTAA` gave an E-score of 0.176.
For `AAATATGC`, the E-score was 0.289.
The E-score of `CACAGGGA` is reported as -0.189.
For `AAGCGAGA`, the E-score was 0.00164.
For `GCGCTTAC`, the E-score was -0.245.
With `AGGGGTCC` the E-score was -0.339.
For `CCTAGGCG`, the E-score was -0.251.
The E-score of `ACAGATCC` is reported as 0.0537.
With `CACCCCGA` the E-score was -0.0996.
The E-score of `ATACGACC` is reported as -0.0799.
`ACAGGGTA` has an E-score of -0.0926.
With `ACGTCTCT` the E-score was -0.0394.
For `AACGACAA`, the E-score was 0.09.

Sample 5
Target: Histone acetyltransferase KAT6A, winged helix 2, GST fusion (KAT6A, Homo sapiens, UniProt Q92794, residues 85-181)
Technique: protein binding microarray
Form: double-stranded DNA, one strand shown
Matrix: in vitro
Concentration: not given
Notes: 8-mer, flanks averaged, mean of 2 arrays, mostly near background
Baseline: not given
Reading: higher = stronger binding
Construct (chain): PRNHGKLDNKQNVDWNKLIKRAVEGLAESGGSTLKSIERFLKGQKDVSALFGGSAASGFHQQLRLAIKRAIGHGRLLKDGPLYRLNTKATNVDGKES
The E-score of `CGAGACCA` is reported as -0.0368.
`ACCTAGTA` has an E-score of -0.129.
`GTTTATTA` gave an E-score of 0.0947.
`ATAAGAGA` gave an E-score of -0.0685.
`GGTCGCAA` has an E-score of 0.12.
`AGCGACAT` has an E-score of -0.0634.
`ACGTAGCA` has an E-score of -0.1.
For `ATCGGCCA`, the E-score was 0.0189.
For `ATGCTCAA`, the E-score was -0.0781.
`CACCGGCA` gave an E-score of 0.124.
`CAGCTCTA` gave an E-score of -0.223.
`CCATGGCC` has an E-score of -0.0899.
`ATAAAGAC` has an E-score of -0.0428.
`CATGGCGA` has an E-score of 0.0703.
For `CGGGTAAC`, the E-score was 0.0658.
`GGGACCAC` gave an E-score of 0.00596.
The E-score of `CTCTGGGC` is reported as 0.219.
With `AAGTTAAA` the E-score was -0.0249.
With `ACGTACCC` the E-score was -0.129.
With `AAAACGCG` the E-score was 0.00103.
`TACCTAGA` has an E-score of -0.109.
With `ATCAAGCC` the E-score was 0.111.
For `AACGCCCA`, the E-score was 0.0835.
The E-score of `CCCTATAA` is reported as -0.306.
The E-score of `ATAGCATA` is reported as 0.0711.

Sample 6
Target: RNA binding protein fox-1 homolog 2, RRM domain, GST-SBP tag (RBFOX2, Homo sapiens, UniProt O43251-10, residues 100-194)
Technique: RNA Bind-n-Seq
Form: RNA
Matrix: in vitro
Concentration: 365 nM
Notes: natural RNA segment, single round, ends assumed
Baseline: no-protein control
Reading: higher = stronger binding
Constant ends, left off below: GGGAGUUCUACAGUCCGACGAUC … UGGAAUUCUCGGGUGCCAA
Construct (chain): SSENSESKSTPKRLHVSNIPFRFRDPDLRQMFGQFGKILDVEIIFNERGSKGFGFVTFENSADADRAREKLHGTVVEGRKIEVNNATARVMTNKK
For `GAACAUCUGUGCCCGAUUUUAGUAUGUGCAGGGGGGCGAUCUGGGAAUCAGUCCCCUGUGGAUACCAAGGUACAACUGUAUUUAUUAACGCUUACUAGAUGUGAGGAGAG`, “RBNS enrichment (R)” read 0.344.
`GUUGGCAUGUUGUCGAAGCCAAUGGCAGCUUGACUGAUGUGAGGUGGCUAUUCCACCUGGUUCAAGAUGGAGGUGUAGAGAAAAGGGAAGUGGGGAACAAGGACUGGGCC` — result for “RBNS enrichment (R)”: 2.35.
Under “RBNS enrichment (R)”, `CUUCCUCUUUCCCAGCCCUAUUUCUGGGAUCCCAGAGGGGCAGGGGUGGUGGAGGCGGUGCCGGGACUUGGCUGAGUGCAGUUUGAGCUCUAGGCUUGUCUCCAUGGGAA` is recorded as 0.239.
`AGUCGGCCAUCUAGCAGCUCCCAGAACCCACGGCUGCCACUGCGUCCGUAUAAACCUGUCAGCACGCACGAGGGUGUCUGUGUUCUAGGAAACGAAUGACUAAUAGCAUU` — result for “RBNS enrichment (R)”: 0.259.
Under “RBNS enrichment (R)”, `UUUUUUACUGGGCUUGGCUGGCCUUGCAGUUUACCAGAUUCAUUUACAGACUCUCUGCUCUGUAUGGCGCCGCCUGCCAUGUCUGUCUUGGUGACUAUCCUGCCUUAAUC` is recorded as 0.799.
Under “RBNS enrichment (R)”, `AGGGUGUUUUUCCUGAGUAGGAGUUAAGUUUGGAACUGGUGGUCUUGAAUGUUAAACAUGGAGUGUGACUGGGACAGCCAUGAGUCAGAAUAUAAAUGAAUGCUUAAACA` is recorded as 2.97.
`AGAGAGACUAUCUUGUGUUGUGCCUGUAUGAAUUUUUAAAAGUUGUUGACUGGAUUUUGCAAAAGGAUGUAUAAUAUUUCUGUCUGCUCAGAAUAUUAAUUUGUAAAUUC` — result for “RBNS enrichment (R)”: 14.
Under “RBNS enrichment (R)”, `CCAUAUAUAUUAAUAGUCAACAAAUACUCAGAUAUUCUAAGGUCAAUGCCAUUAUUUGAUUAUACCAUUUUGAGGGUGAAUAUGGCUAGGCACUUUAGAUAAGCCUUUUU` is recorded as 0.84.
`UAGGCUUUUUUCUCUCUGCAACAUUUGUUCCUGGAAGAAAAGAGCAGAUGGAUUAUUUGUCGACCAAAAUGAUGCCAAUUUGUAAAUUAAAAUGUCACCUAGUGGCCCUU`: “RBNS enrichment (R)” 0.329.
`AGAUUUGAAUUAUCGAGGCAUUUAUUGUGUACUCUUCAACAGUGCUAAAUAAAACAACAUACCAAGCAAGUCUAGUCAUUAACACCCCUUGUUGGCAUCUAGCACAUCAC` — result for “RBNS enrichment (R)”: 0.654.
For `UGUGUGGGUUAGGGCUUUUUUCGUUGCAUGUGAUGGUUCUGUGGACAUAUGAUCCCCACAAACUGUGGGAGUGAUUGGCCAGGCCUUGUUUUGUUUGUUUGUUUGUUUGU`, “RBNS enrichment (R)” read 52.1.
`GACCCUUUUUAAACAAUGCUGAGCAGGCCCUGAGCUAUAAUCAACGGUGAGCUUUAAUGUCUAUGCUGACAGUUAGGUUUUGCUCUCUUUUGUAACAGGUUACGUAGACC` — result for “RBNS enrichment (R)”: 0.338.

For quick reference, copied from above (sample 5):
`CATGGCGA` has an E-score of 0.0703.
`TACCTAGA` has an E-score of -0.109.
`ACCTAGTA` has an E-score of -0.129.
`ATAAGAGA` gave an E-score of -0.0685.
The E-score of `CTCTGGGC` is reported as 0.219.
With `ACGTACCC` the E-score was -0.129.
